Results collected from several papers.
A part holds a random share of what one study measured.

Block 1
Target: RING finger protein unkempt homolog, zinc fingers 1-6, GST-SBP tag (UNK, Homo sapiens, UniProt Q9C0B0, residues 30-357)
Method: RNA Bind-n-Seq
Form: RNA
Medium: in vitro
Tested at: not given
Notes: RNA with constant flanks, human and mouse sites, ends assumed
Reference: input RNA pool
Direction: higher = stronger binding
Shared flanks, not repeated: GGGAGUUCUACAGUCCGACGAUC … CAACAGAGGAUUGAGCAUCA
Construct (chain): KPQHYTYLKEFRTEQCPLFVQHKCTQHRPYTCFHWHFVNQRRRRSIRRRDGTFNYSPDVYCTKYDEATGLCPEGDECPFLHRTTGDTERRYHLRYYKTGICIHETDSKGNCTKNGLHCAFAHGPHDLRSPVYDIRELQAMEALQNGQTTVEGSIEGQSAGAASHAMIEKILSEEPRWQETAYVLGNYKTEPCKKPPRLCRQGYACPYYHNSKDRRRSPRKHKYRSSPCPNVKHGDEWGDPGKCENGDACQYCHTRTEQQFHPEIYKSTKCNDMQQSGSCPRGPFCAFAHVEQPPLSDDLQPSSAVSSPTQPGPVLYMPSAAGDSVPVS
Strand	bound/input enrichment [ratio]
CAAGAUCACCUGUCUCCUGAAGCAGAAGAAAUCACUAUGAUUAGUAUUCAGCUUGCUGCUAGGUUCCUUUUUACUACAGGAUUUCACACAAAGAAAAUAGUCCGAGGAUCUGCCAGUGAU	0.348
CUUGGCCAGCUCCACCACUGUCAGGUUCUCCAGUUCUGACUGGGGUUGUGGUGAUGGCGGUAGGUGGGAAGAUCCACCCUGGCUCAGGAGCCUGACUUGACACUGGUUCUUUCAGCCCUA	0.0664
CUCCACCCAAGAGGAAAAGAAAGAGAGUUAAACAGAGAAUUAAUACUUACGUAUUUGUGGGUAAUCAGCUUAUCCCUCAGCCUCUAGACAGUGAAGAGGAUGAAAAAAUGGAAGAAGACA	0.164
GAAAGUAUCACGUCUGCUGGAAGAGAUGAUCUAGAGAGCUUCCAGCUUGAGAUAAGUGGCUUUUUAAAAGAAAUGGCAUGUCCAUAUUCUGUACUCAUAUCAGGAGAUAUUAAAGAUCGU	0.735
CGGGAUGACCAGACUCCCGGACUCCUCAGGCAGUGCCCUUCCUCCCCACUCUUCCUCCCCACAGACAGGCCUCUGCUCCUGCGCCUGCCUGCAUGCUCUCUCUUGUCGUUGGAGCCUGGA	1.04
AAGUCUCAUUCGCCUUUGUCUUGUACUUCUGUGUUCAUUUUUUUUUUUUUUUUUGGCUAGAGUUUCCACUAUCCCAAUCAAAGAAUUACAGUACACAUCCCCAGAAUCCAUAAAUGUGUU	0.23
UGCCUCAAGCUGCUGAAGGAAUUUAAACGGAAUGACCAUGAUGAUGACGAGGACGAGGAGGUCAUCUCCAAGACAGUGCCUCCAGUGGACAUUGUGUUCGAGCGGGAUAUGCUCACACAG	0.138
GCCAUGGACACAGAAUUUCCAGGUGUUGUGGUGCGACCAAUUGGUGAAUUUCGUAGUUCCAUAGAUUACCAAUAUCAGCUUCUGCGGUGCAAUGUUGACCUUUUAAAAAUUAUCCAGCUG	0.685
AUCUGAAGACUCUGACACACAGAACAUAGUUUCUGGAGAGUCCUGUGAGCUUCCUUGUUGGAGUCAUUCAGAUCCAGAAAGCAUGAGCUUGUUUGAUGAAUAUUUUAAUGAUGAUUCAAU	0.248
GCAGCAACCACUGGUGAGUUAGCUGCUAACAAGUCUGAGAUGGCCUUCAAGGCCCAGAAUGCCACUACUAAAGUGGGCCCAAAUGCCACCUACAAUUUCUCUCAGUCUCUCAAUGCCAAU	0.138
GGCUGUGGAAUCAGUCCAGAAAUUCAUUGUGAUGGUGGCCACACAUUCAGACCUCCUUCUGUUAGCAACUACUGCAUCUGUGACAUUACAAAUGGCAAUCACAGUGUGGAUGAGAUGCCG	0.26

Block 2
Target: Interferon regulatory factor 5, full length, phosphomimetic (IRF5, Homo sapiens, UniProt Q13568-2, residues 1-514, K96S/S451D/S453D/S456D/S462D)
Method: protein-binding microarray
Form: double-stranded DNA, one strand shown
Medium: in vitro
Tested at: 250 nM
Notes: 60-bp whole probe
Together with: salmon DNA 0.4 mg/ml
Reference: random background probes
Direction: higher = stronger binding
Shared flanks, not repeated: GCCTAGCAC … GTCTTGATTCGCTTGACGCTGCTG
Strand	log fluorescence [z-score]
GACGGTTCCCTTTTCTTGACGTGCTAG	0.361
GACCGTTTCGGTCTCGGGACGTGCTAG	8.82
TTAGAACTGAGTTTCGATGAGTGCTAG	8.2
GACTGTTTCCTTATCCTGACGTGCTAG	0.857
GACCGTATCGGTTTCGGGACGTGCTAG	8.69
TGAGGTTCCGGTTTCGGTTAGTGCTAG	9.25
ATAGGTCTCGGTTTCGGTTAGTGCTAG	8.84
GACGATTCCAGTTTCGAGACGTGCTAG	5.56
GACAATATCGGGTTTCGAGACGTGCTA	4.59
TTAGGACTGCTTTTCCTTTGGTGCTAG	0.127
TCATTTTTAATGAATGAAACTGTGCTA	1.21
GACGATCTCAGTCTCGAGGCGTGCTAG	-0.195
TTAGGTATCGGTCTCTGTTAGTGCTAG	6.67
TTAGGTATCGGACTGGGTTAGTGCTAG	1.62
TCATTTTCACTTTTCCTACTGTGCTAG	6.37
TCAAATCTGTGTTATTAAACTGTGCTA	0.728
GTAGGTATCCTTATCCTTTAGTGCTAG	0.102
GACGGTTTCGGTTTGGGGACGTGCTAG	9.53
TTAGAGTTCAGTCTCGATTAGTGCTAG	0.864

Block 3
Target: Ras GTPase-activating protein-binding protein 1, full length (G3BP1, Homo sapiens, UniProt Q13283)
Sequence of UniProt Q13283 (whole entry, looked up): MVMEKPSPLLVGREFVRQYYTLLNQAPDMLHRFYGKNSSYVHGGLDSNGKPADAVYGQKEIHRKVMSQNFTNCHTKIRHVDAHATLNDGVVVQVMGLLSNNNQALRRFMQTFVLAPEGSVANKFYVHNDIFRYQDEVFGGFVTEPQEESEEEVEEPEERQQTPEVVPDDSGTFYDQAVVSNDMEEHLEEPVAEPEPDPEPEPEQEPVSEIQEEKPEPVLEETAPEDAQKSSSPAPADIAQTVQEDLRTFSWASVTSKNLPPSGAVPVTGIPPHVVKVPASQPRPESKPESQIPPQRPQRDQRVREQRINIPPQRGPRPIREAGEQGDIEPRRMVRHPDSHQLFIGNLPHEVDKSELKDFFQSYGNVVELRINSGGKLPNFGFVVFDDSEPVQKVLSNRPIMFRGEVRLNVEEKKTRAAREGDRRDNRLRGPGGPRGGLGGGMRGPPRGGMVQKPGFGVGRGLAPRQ
Method: RNA Bind-n-Seq
Form: RNA
Medium: in vitro
Tested at: 200 nM
Notes: whole 134-nt RNA, ends assumed
Together with: 150 mM KCl
Reference: input library
Direction: higher = stronger binding
Shared flanks, not repeated: GGGAGUUCUACAGUCCGACGAUC … UGGAAUUCUCGGGUGUCAAGG
Strand	log2 enrichment
AGUCCUGUGCUACACAUCGUAUGUACCGAAUCGGGUUUUGGGUUUUGGGGUUUUGGGAAAGUAUUAUGUUACGCCGUUCGGAUCUGCACU	-0.12
ACCAUGCAGGUGGACAUCUUUGGGAAGUGGGGCAAGGGGGGGAUAGGGAGGGGGGUAACACUUUGGGAACAGGUGGUCCCAGGUCGUUUC	1.17
CCUGUGCUACACAUCGUAUGUACCGAAUCGGGGAAAGGGGAAAAAAAGGGGAAAAAGGGGAAAGUAUUAUGUUACGCCGUUCGGAUCUGC	0.0705
CAAGUCCUGUGCUACACAUCGUAUGUACCGAAUCGGCCCCGGGCCCCGGCCCCGGGAAAGUAUUAUGUUACGCCGUUCGGAUCUGCACUU	-0.673
CACAGACAACACGCACCCACACAGACACAGAGGGAAGGGGUUGGGAUGGGGACAGGGUGCACAAAAGGGCGGGGUAGGACCCCAGCCCCU	1.87
UGGCCCUGGUGGCAUGCGGGGAGGAAGAGGUGGCCUCAUGGAUAGUGGUGGUCCCGGUGGAAUGUUCAGAGGUGGCCGUGGUGGAGACAG	0.414
UAACUUCAGAGGAGGAUCUGAUGGAUAUGGCAGUGGACGUGGAUUUGGGGAUGGCUAUAAUGGGUAUGGAGGAGGACCUGGAGGUGGCAA	0.364
GGGGACGGCAAAACAGAACAGAAAGGCGGAGAUAAAAAGAGGGGUGUUAAAAGACCACGAGAAGAUCAUGGCCGUGGAUAUUUUGAGUAC	0.532
ACCAUGCAGGUGGGCAUCUUUGGGAAGUGAGGCAAGGGGGGGAUAGGGAGGGGGGUAACACUUUGGGAACAGGUGGUCCCAGGUCGUUUC	1.75
AGUCCUGUGCUACACAUCGUAUGUACCGAAUCGGGUUUUGGGGUUUUGGUUUUGGGGAAAGUAUUAUGUUACGCCGUUCGGAUCUGCACU	-0.495
AGUCCUGUGCUACACAUCGUAUGUACCGAAUCGGGGUGGGGUUUUUGGGGAAAGGGGAAAGUAUUAUGUUACGCCGUUCGGAUCUGCACU	0.576
GUCCUGUGCUACACAUCGUAUGUACCGAAUCGGCCCCCGGGGCCCCCGGGGCCCCCGGGAAAGUAUUAUGUUACGCCGUUCGGAUCUGCA	-0.392
UGGCCCUCGUGGCAUGCGGGGAGGAAGAGGUGGCCUCAUGGAUCGUGGUGGUCCCGGUGGAAUGUUCAGAGGUGGCCGUGGUGGAGACAG	0.0948
ACCAUGCAGGUGGGCAUCUUUGGGAAGUGGGGCAAGGGGGGGAUAGGGAGGGGGGUAACACUUUGGGAACAGGUGGUCCCAGGAAAUUUC	1.17

Block 4
Target: Sal-like protein 4, full length isoform A (SALL4, Homo sapiens, UniProt Q9UJQ4, residues 1-1053)
Sequence of UniProt Q9UJQ4 (whole entry, looked up): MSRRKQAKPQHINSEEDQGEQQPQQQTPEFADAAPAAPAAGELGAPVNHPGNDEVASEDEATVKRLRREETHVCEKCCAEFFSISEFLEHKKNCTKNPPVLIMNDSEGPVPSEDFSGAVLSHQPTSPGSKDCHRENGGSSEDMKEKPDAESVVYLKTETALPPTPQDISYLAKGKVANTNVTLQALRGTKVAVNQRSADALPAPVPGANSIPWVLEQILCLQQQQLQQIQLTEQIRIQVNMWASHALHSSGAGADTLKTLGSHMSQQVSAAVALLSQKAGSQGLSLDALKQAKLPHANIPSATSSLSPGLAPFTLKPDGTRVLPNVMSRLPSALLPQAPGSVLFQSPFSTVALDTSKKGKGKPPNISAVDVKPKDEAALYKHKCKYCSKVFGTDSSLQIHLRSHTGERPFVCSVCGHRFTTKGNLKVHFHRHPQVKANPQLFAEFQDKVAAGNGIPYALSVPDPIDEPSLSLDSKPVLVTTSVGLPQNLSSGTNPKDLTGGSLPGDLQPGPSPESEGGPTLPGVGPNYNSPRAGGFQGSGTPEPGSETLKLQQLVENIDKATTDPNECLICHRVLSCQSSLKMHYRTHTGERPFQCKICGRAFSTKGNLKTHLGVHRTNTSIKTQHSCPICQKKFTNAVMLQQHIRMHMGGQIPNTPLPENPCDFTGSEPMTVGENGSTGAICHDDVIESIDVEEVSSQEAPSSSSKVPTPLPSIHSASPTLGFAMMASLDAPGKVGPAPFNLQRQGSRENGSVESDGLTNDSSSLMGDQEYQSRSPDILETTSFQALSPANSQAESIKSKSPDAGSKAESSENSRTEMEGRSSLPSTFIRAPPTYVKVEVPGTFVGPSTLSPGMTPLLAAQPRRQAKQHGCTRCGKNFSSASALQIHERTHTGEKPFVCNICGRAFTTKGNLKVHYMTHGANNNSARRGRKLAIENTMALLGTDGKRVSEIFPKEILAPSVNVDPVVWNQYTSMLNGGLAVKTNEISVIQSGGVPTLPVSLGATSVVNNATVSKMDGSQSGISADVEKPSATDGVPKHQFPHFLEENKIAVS
Method: universal PBM
Form: double-stranded DNA, one strand shown
Medium: in vitro
Tested at: 600 nM
Notes: 8-mer, flanks averaged, mean of replicates
Direction: higher = stronger binding
Strand	E-score
TGGAACCA	-0.082
CCGGAGGA	-0.306
CTAGGGAG	-0.168
CGCAGGAC	-0.283
GGACTCAC	-0.208
CAGCAGAG	-0.201
GCCTGTTA	0.00417
AAGTCACC	-0.196
AAGACCGA	-0.0791
AGACGTAC	0.00375
CCGTTGTC	-0.188
AATGCTAA	0.182
GCCTCCGC	-0.368
GATCCCCA	-0.185
GCTGCTAA	-0.18
CACCTTCA	-0.0827
GTCTATGA	0.136
CAGGAGGG	-0.255
CATATCGA	0.0708
TCGAGAAA	0.0665
CCTCGAGA	-0.18
AACTAATG	0.237

For quick reference, copied from above (block 4):
Strand	E-score
AGACGTAC	0.00375
CCTCGAGA	-0.18
GCCTCCGC	-0.368
GTCTATGA	0.136
AAGACCGA	-0.0791
CAGGAGGG	-0.255
CATATCGA	0.0708
CGCAGGAC	-0.283
GGACTCAC	-0.208
AACTAATG	0.237
CACCTTCA	-0.0827
